# Experimental data of several laboratories.
# Protocols differ between the studies behind these lines. ± gives the spread as reported.
# Organism: Staphylococcus aureus
Compound,test,test system,setting,MIC
Cc1cc(/C=C2\Sc3ccccc3N2CCCN2CCCC2)c2ccccc2[n+]1C,"microbial growth, broth dilution",ATCCBAA41 MRSA,,8 µg/mL
NC[C@@H]1O[C@H](O[C@H]2[C@@H](O)[C@H](O[C@@H]3[C@@H](O)[C@H](N)C[C@H](N)[C@H]3O[C@H]3O[C@H](CO)[C@@H](OCC(O)CO)[C@H](O)[C@H]3N)O[C@@H]2CO)[C@H](N)[C@@H](O)[C@@H]1O (stereo partly drawn),broth microdilution,MRSA isolate AG 039,,16 to 32 µg/mL
CCn1cc(/C=C/c2ccc3ccccc3[n+]2CC)c2ccccc21,,"1466, Mueller-Hinton broth",,4 ± 0.002 µg/mL
O=C(c1cc(Cl)c(Cl)[nH]1)c1ccccc1O,"microbial growth, broth dilution",NCTC8325,20 h,2 µg/mL
CNC(CC(C)C)C(=O)NC1C(=O)NC(CC(N)=O)C(=O)NC2C(=O)NC3C(=O)NC(C(=O)NC(C(=O)O)c4cc(O)cc(O)c4-c4cc3ccc4O)C(O)c3ccc(c(Cl)c3)Oc3cc2cc(c3OC2OC(CO)C(O)C(O)C2OC2CC(C)(NC(=O)CCCCCC[N+](C)(C)C)C(O)C(C)O2)Oc2ccc(cc2Cl)C1O (stereo not drawn),agar dilution,MRSA clinical isolate MRSA3,,64 µg/mL
C=C(NC(=O)C(=C)NC(=O)c1csc(C2=NC3c4csc(n4)C4NC(=O)c5csc(n5)C(C(C)(O)C(C)O)NC(=O)C5CSC(=N5)C(=CC)NC(=O)C(C(C)O)NC(=O)c5csc(n5)C3(CC2)NC(=O)C(C)NC(=O)C(=C)NC(=O)CNC(=O)C(C(C)CC)NC2C=Cc3c(C(C)O)cc(nc3C2O)C(=O)OC4C)n1)C(N)=O (stereo not drawn),broth microdilution,ATCC 10537 MRSA,"18 h, 37 °C",0.023 µg/mL
CCCCCCCCN1C(=O)/C(=N\NC(=N)N)c2cc(C)ccc21,"microbial growth, broth dilution",,18 h,6 µg/mL
CN(C)c1cc(CNc2ccccc2)c(O)c2c1C[C@H]1C[C@H]3[C@H](N(C)C)C(O)=C(C(N)=O)C(=O)[C@@]3(O)C(O)=C1C2=O,"microbial growth, broth dilution",,,2 µg/mL
CCCCCCCCCc1nc2cc(C(F)(F)F)ccc2c(=O)n1N,broth microdilution,RN6390B,,> 100 µM
CN(C)c1cc(CNCc2ccc(O)cc2)c(O)c2c1C[C@H]1C[C@H]3[C@H](N(C)C)C(O)=C(C(N)=O)C(=O)[C@@]3(O)C(O)=C1C2=O,,"RN4250, Tet K efflux",,4 µg/mL
O=C1OCC(O)N1/N=C/c1ccc([N+](=O)[O-])o1 (stereo not drawn),"microbial growth, broth dilution",ATCC29213,18 h,1.56 µg/mL
COC1(C)CC2C=CC3C(C)C=CC=CC(C)OC(=O)C(C)C(=O)C(Cl)(Cl)C(=O)C3C2C(C)C1O (stereo not drawn),"microbial growth, broth dilution",NEWMAN,,4 to 8 µg/mL
CC1(C)S[C@@H]2[C@H](NC(=O)[C@H](NC(=O)C3=C(O)C(c4ccccc4F)NC3=O)c3ccccc3)C(=O)N2[C@H]1C(=O)O (stereo partly drawn),"microbial growth, broth dilution",ATCC29213 MSSA,drug-resistant strain,0.78 µg/mL
CC(C)CNCc1cc(N(C)C)c2c(c1O)C(=O)C1=C(O)[C@]3(O)C(=O)C(C(N)=O)=C(O)[C@@H](N(C)C)[C@@H]3C[C@@H]1C2,,"RN4250, Tet K efflux",,1 µg/mL
Oc1c(Cl)cc(Cl)c2cccnc12,"microbial growth, agar dilution",ATCC25923,,37.4 µM

# Excerpt of the above:
Compound,test,test system,setting,MIC
CNC(CC(C)C)C(=O)NC1C(=O)NC(CC(N)=O)C(=O)NC2C(=O)NC3C(=O)NC(C(=O)NC(C(=O)O)c4cc(O)cc(O)c4-c4cc3ccc4O)C(O)c3ccc(c(Cl)c3)Oc3cc2cc(c3OC2OC(CO)C(O)C(O)C2OC2CC(C)(NC(=O)CCCCCC[N+](C)(C)C)C(O)C(C)O2)Oc2ccc(cc2Cl)C1O (stereo not drawn),agar dilution,MRSA clinical isolate MRSA3,,64 µg/mL
